# Published values gathered from unrelated publications.
# Parts stem from different laboratories: compare values within a part only. Substitutions count along the parent as printed.

# Block 1
# Target: ABI1, truncated, D143A, DHFR fusion (Arabidopsis thaliana)
# Method: DHFR PCA, deep sequencing
# Sample: yeast
# Notes: methotrexate growth selection, single substitutions
# With: (+)-ABA 1.4 µM
# Relative to: wild-type fitted maximum
# Direction: higher = stronger binding
# Parent: PYL1, truncated, DHFR fusion (Arabidopsis thaliana); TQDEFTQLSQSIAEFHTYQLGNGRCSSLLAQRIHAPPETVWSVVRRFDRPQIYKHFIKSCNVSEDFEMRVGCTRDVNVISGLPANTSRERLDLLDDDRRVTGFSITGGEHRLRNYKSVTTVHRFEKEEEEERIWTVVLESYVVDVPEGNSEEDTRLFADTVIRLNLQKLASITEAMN; partner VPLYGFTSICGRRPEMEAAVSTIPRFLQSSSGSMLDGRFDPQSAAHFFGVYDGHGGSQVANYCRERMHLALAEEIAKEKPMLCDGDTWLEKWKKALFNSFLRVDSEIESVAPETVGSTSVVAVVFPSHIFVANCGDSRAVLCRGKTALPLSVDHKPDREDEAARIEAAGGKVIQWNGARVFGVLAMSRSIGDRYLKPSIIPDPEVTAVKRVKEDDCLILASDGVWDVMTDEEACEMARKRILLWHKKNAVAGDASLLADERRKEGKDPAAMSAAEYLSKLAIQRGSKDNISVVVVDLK
Substitution,relative binding score
E139S,20.1%
V136E,-0.511%
V142H,5.52%
I12Q,-0.22%
E14S,9.6%
R90H,7.23%
S26Q,9.62%
L93N,16.4%
D3V,25.1%
L166P,22.3%
S150E,9.08%
H16C,-12.2%
Y18S,3.83%
R132K,80%
P36V,6.52%
K126T,80.7%
L29F,-2.69%
E174G,-3.8%
R32L,54.6%
V70C,11.9%

# Block 2
# Target: Max dimerization protein 1, bHLH-zipper, MAX partner unstated (MXD1, Homo sapiens, UniProt Q05195, residues 56-136)
# Method: protein-binding microarray
# Molecule type: double-stranded DNA, one strand shown
# Sample: in vitro
# Tested at: not given
# Notes: k-mer, scored over probes, only values ≥0.25
# Direction: higher = stronger binding
# Residues (chain): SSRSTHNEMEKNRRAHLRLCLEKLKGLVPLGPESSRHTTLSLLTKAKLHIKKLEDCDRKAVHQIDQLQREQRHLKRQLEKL
Oligonucleotide,E-score
CAACCATG,0.313
CGTGAGAG,0.262
CCATGGCA,0.293
GCCCTCCC,0.29
AAACGTGG,0.42
ATCGTGCG,0.289
AACACGCT,0.367
AATCACGC,0.337
ACACATGA,0.368
GTGGTATA,0.265
ATGCGAGG,0.266
CATGTGAG,0.434
CACGATGA,0.324
CGTGGAAC,0.252
CCACGCCG,0.384
AACATGAT,0.273

# Block 3
# Target: FOSL2, bZIP domain (human)
# Method: DHFR protein complementation
# Sample: yeast
# Notes: single substitutions, most at no-binding floor
# Relative to: wild-type JUN-FOS pair
# Direction: higher = stronger binding
# Parent: JUN, bZIP domain (human); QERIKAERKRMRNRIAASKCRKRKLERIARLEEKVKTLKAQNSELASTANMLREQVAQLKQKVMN; partner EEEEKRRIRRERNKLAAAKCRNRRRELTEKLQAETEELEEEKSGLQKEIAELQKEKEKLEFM
Substitution,binding fitness [natural log]
R30G,0.137
S47A,0.135
N42P,-1.03
Q55Y,-0.114
N42I,0.00627
T37N,0.151
L38N,-1.21
A57R,-0.00526
V56G,-1.21
I28Y,-0.054
A29G,-0.0305
K36C,0.135
E33N,-0.091
R53I,-0.573
A46S,0.0279
L38V,-0.636
Q41E,0.0986

# Block 4
# Target: Sal-like protein 4, full length isoform A (SALL4, Homo sapiens, UniProt Q9UJQ4, residues 1-1053)
# Sequence of UniProt Q9UJQ4 (whole entry, looked up): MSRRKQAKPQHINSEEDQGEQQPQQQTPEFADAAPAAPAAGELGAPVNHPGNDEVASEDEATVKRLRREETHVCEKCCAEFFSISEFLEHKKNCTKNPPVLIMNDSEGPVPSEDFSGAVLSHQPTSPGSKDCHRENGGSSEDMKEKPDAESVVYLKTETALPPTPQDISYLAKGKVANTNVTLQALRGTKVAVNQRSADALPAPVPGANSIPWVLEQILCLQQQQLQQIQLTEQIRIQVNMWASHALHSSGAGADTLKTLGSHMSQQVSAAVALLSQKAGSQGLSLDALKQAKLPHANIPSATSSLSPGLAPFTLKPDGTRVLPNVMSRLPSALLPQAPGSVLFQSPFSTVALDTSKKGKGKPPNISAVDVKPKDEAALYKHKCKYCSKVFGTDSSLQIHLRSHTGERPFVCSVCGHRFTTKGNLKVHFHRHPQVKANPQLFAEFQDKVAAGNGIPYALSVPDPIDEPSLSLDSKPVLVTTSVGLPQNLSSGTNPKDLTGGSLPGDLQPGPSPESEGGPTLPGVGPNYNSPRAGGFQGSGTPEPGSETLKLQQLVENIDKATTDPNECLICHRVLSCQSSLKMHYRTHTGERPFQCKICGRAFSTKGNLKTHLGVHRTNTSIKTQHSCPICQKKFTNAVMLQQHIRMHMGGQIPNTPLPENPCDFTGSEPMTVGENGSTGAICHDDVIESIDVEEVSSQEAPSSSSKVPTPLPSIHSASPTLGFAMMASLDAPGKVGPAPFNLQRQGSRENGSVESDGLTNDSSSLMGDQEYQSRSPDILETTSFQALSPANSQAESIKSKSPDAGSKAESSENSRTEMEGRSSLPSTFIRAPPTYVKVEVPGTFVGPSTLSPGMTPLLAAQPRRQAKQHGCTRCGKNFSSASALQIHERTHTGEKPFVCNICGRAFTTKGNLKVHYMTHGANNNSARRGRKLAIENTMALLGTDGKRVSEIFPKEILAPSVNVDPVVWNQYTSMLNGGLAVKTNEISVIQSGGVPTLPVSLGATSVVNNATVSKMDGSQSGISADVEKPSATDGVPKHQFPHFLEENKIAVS
# Method: universal PBM
# Molecule type: double-stranded DNA, one strand shown
# Sample: in vitro
# Tested at: 600 nM
# Notes: 8-mer, flanks averaged, mean of replicates
# Direction: higher = stronger binding
Oligonucleotide,E-score
CTAATTCC,0.131
ATTGTCAG,0.115
CCGTTTCC,-0.112
AGCGATTC,-0.0523
CCGGGTCC,-0.443
ATCGCAAC,-0.0782
CCGATAGA,0.0146
CCCGGTAG,-0.331
ACGGAGCC,-0.335
CTGAAATC,0.101
ATCCTGAC,-0.0177
ACATGCAG,0.0574
AAGTCCGT,-0.121
TCAGTTAA,0.15
ACAGATTA,0.0246
GCATCCTA,-0.0491
GAGATAGA,-0.0163
ATTCCTCC,0.0762
GGCTTCGA,-0.148

# Block 5
# Target: Interferon regulatory factor 7, full length, phosphomimetic (IRF7, Homo sapiens, UniProt Q92985, residues 1-503, S101K/S471D/S472D/S475D/S476D/S477D/S483D/S484D/S487D)
# Sequence of UniProt Q92985 (whole entry, unmodified, looked up): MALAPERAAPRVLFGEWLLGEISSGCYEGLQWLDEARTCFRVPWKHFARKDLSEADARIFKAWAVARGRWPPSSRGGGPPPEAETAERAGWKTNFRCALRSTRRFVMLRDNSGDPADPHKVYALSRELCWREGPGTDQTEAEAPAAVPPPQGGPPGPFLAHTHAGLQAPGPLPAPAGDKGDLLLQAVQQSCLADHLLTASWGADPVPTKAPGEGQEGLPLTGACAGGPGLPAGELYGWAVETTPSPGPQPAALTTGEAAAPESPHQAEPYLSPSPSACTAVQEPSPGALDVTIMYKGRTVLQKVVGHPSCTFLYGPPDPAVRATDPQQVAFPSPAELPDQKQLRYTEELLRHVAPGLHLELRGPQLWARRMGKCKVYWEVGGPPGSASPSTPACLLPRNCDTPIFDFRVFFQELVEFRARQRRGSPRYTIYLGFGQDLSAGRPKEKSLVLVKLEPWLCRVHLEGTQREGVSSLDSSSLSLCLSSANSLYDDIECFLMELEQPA
# Method: protein-binding microarray
# Molecule type: double-stranded DNA, one strand shown
# Sample: in vitro
# Tested at: 250 nM
# Notes: 60-bp whole probe
# With: salmon DNA 0.4 mg/ml
# Relative to: random background probes
# Direction: higher = stronger binding
# Constant ends, left off below: GCCTAGCAC … GTCTTGATTCGCTTGACGCTGCTG
Oligonucleotide,log fluorescence
CCTGGCTCCATGGAATTTTTGTGCTAG,-0.658 z-score
ACGCATGTGGGTTCCATCATGTGCTAG,-0.596 z-score
TCATCTTTTCATTTTCTACTGTGCTAG,1.88 z-score
TTAGGACTGCTACTGCATTAGTGCTAG,-0.458 z-score
GACAGTTTCGGGTTTCGGGACGTGCTA,11.2 z-score
TCACCTTTTTTGTTGTTACTGTGCTAG,1.1 z-score
TAAGGACTGGGTTTCGGTTAGTGCTAG,7.38 z-score
TTAGTTTCCAGTTTCGATTAGTGCTAG,12.9 z-score
TCATCTCTGGGTCGGGCACTGTGCTAG,0.216 z-score
GACGATATCGGGACTGGAGAAGTGCTA,-0.204 z-score
TTAGGTTTCCATTCCCTTTAGTGCTAG,6.78 z-score
TTAGGTCTCGGACTCGGTTAGTGCTAG,1.71 z-score
TTAGGTATCCTTTTCCTTGAGTGCTAG,1.81 z-score
GACGATTTCCGGTATCGAGACGTGCTA,1.33 z-score
TTAGATTTCAGTACCGATTAGTGCTAG,0.575 z-score
TAAGGACTGGGTATCGGTTAGTGCTAG,0.931 z-score
GACGGTTCCGGTTTCAGGACGTGCTAG,5.69 z-score
TCAGTTATAATATTATTACTGTGCTAG,0.54 z-score

# Block 6
# Target: Phosphate system positive regulatory protein PHO4, full length, GST-tagged (PHO4, Saccharomyces cerevisiae, UniProt P07270, residues 1-312)
# Method: competition protein-binding microarray
# Molecule type: double-stranded DNA, one strand shown
# Sample: in vitro
# Tested at: 2 µM
# Notes: whole 60-bp probe, lowest competitor level
# With: Cbf1 competitor, 0.05 µM
# Direction: higher = stronger binding
# Construct (chain): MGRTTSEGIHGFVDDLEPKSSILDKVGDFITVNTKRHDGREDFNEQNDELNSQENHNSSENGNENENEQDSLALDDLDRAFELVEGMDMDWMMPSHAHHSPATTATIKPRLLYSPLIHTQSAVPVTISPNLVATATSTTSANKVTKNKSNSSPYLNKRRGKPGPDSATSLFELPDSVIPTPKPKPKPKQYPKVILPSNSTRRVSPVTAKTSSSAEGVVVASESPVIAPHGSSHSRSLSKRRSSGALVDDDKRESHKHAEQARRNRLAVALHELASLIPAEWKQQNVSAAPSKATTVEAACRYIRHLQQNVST
Oligonucleotide,fluorescence intensity [a.u.]
AGGGTGTTGATGGTGCTCGTGTTGAATACATTTGTGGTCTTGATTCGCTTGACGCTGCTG,8630
CGGGGTTAAGTTTGTATCGTGGGTGGCTTGCAGCAGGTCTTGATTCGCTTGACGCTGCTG,7420
TGAAATGGAATCGACCACGGGTCTTGTTGAAAGCAGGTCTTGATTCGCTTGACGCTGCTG,9470
CACATAAGGATAATTCACCTGCCAAGACGGCACAGGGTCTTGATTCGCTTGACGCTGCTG,4470
CGTCCTAGCGATTGATGTGTGGGTGCCATGAGGAAGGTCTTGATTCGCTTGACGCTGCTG,8110
ATACGTATGTGTTCGTACGTGCGATCCGCAAGGTCTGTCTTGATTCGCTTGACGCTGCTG,7240
CTTTCCCGATCTTTTCACGTGGCATTAGCACATTTGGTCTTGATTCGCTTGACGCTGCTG,15100
GTTTCGACTTGCCACAACGTGCTTTCGGTTTCTTGTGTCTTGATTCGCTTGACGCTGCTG,11900
CGTCCTAGTGATTGCGTCGTGGGTGCCATGAGGAAGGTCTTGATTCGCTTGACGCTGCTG,10600
GTCTTGTCTCATTGTCACGGGACTTTCCCCACTTCAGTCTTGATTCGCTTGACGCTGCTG,6820
GTACGTTATTGCTGGCACGATCCTGTCGCTACGGCCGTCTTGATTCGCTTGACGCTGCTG,9560
AGCAATTCGGCCAACAACGTGCTTTCCTTCATCTCTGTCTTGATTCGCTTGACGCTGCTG,12900
CTGAATTCTTTAAAGAGTGTGACAGTGTCTTTTCCGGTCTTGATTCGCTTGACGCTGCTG,4290
CTAACGAAGGTTTGTTTTGTGGGTGACAAGCCAAGTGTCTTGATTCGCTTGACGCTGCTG,3830
ATAAGTTTCCCTGGTTACGTGTTGAAGCAGACCGCAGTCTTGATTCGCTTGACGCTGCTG,4600
CGGGGTTAAGTTTGGCGAGTGGGTGGCTTGCAGCAGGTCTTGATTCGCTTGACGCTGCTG,4310
CATTCGGTTAATCAACACGTGGAAGTCCCAGGTTCTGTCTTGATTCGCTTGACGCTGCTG,17100
ACACTTATGTGGTTCACCGTGCCGATGCTGTGTTTAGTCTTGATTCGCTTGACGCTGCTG,6840
TTACGGCCATTTCTGCTCGTGGTGAAGATCAAGTGTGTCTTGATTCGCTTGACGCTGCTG,9520
TCAAAATTGAACGGCCACGTTGAGGGACCGTTGTCAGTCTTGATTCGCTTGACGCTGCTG,11200
GTCTTGTCTCATTGCCACGTGTTTTTCCCCACTTCAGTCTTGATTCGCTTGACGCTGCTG,16600
ATAGCAGCCTATGGACACGGGATACAGTACCAGCAAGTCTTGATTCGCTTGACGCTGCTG,6660
CGGGGTTAAGTTTTTCACGTGTCGTGCGATCAGCAGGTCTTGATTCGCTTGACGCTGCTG,13100
GAAGTCGGTTCATTGCATGTGCTGTTACACTTCTTAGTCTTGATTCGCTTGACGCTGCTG,8440
GAAGGCCGATGCTGTGCCGTGATGGTCTTTTCCGCAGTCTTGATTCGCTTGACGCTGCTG,3290

# Block 7
# Target: CCND3, cyclin fold, Cln2 fusion (human)
# Method: yeast growth competition, sequencing
# Sample: yeast
# Notes: weak parent motif
# Relative to: not given
# Direction: higher = stronger binding
# Parent: GMNC docking peptide (human); KNAKRNLSSEFAN; partner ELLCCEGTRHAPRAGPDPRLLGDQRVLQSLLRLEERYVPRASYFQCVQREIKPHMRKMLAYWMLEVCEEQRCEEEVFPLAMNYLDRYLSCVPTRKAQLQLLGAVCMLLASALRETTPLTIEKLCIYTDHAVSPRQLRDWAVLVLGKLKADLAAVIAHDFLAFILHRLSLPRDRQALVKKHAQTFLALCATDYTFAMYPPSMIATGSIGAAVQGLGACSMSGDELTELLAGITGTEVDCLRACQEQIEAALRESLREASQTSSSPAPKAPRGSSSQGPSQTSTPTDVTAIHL
Substitution,normalised enrichment score
S9F,0.2
S8C,-0.321
N6F,-0.11
N6T,0.573
L7T,0.12
S9V,0.0129
A3Q,0.141
E10G,0.0659
K4F,0.34
A12N,0.0211
N6L,-0.299
R5M,0.267
F11N,-0.207
K4M,0.204
S9Q,-0.0849
R5Q,0.344
E10N,0.0229
S8Q,0.816
K4I,0.331
N6G,0.627
N2M,0.267
N6S,0.142
K4G,0.139
R5S,0.408
K4C,-0.0747

# Excerpt of the above (block 1):
Substitution,relative binding score
K126T,80.7%
S26Q,9.62%
E174G,-3.8%
R132K,80%
P36V,6.52%
V142H,5.52%
D3V,25.1%
V136E,-0.511%
R90H,7.23%
E139S,20.1%
H16C,-12.2%
R32L,54.6%
